Measured values of several laboratories.
A part holds a random share of what one study measured.
Chain of UniProt P04629 (whole entry, looked up): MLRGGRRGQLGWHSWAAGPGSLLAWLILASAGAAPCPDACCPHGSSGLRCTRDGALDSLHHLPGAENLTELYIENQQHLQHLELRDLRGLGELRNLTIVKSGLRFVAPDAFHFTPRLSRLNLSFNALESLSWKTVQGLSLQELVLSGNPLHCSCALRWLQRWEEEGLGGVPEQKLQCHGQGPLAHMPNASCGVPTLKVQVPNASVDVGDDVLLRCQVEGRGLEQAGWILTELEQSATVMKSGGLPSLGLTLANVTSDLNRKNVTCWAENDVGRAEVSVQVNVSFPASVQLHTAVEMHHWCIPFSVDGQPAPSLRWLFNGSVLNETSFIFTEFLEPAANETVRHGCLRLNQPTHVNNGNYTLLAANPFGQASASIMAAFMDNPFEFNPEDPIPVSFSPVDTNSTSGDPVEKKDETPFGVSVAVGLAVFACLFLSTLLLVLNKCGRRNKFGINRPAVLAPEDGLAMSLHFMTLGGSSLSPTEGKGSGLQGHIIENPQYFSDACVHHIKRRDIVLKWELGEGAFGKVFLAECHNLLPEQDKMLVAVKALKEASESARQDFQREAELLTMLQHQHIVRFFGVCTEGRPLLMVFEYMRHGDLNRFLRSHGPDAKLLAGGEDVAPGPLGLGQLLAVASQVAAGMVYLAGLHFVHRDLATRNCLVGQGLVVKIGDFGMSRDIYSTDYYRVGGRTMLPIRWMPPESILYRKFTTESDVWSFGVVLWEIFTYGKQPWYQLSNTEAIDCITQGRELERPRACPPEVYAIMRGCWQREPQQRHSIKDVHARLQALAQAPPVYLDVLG
Chain of UniProt Q9Y2H9 (whole entry, looked up): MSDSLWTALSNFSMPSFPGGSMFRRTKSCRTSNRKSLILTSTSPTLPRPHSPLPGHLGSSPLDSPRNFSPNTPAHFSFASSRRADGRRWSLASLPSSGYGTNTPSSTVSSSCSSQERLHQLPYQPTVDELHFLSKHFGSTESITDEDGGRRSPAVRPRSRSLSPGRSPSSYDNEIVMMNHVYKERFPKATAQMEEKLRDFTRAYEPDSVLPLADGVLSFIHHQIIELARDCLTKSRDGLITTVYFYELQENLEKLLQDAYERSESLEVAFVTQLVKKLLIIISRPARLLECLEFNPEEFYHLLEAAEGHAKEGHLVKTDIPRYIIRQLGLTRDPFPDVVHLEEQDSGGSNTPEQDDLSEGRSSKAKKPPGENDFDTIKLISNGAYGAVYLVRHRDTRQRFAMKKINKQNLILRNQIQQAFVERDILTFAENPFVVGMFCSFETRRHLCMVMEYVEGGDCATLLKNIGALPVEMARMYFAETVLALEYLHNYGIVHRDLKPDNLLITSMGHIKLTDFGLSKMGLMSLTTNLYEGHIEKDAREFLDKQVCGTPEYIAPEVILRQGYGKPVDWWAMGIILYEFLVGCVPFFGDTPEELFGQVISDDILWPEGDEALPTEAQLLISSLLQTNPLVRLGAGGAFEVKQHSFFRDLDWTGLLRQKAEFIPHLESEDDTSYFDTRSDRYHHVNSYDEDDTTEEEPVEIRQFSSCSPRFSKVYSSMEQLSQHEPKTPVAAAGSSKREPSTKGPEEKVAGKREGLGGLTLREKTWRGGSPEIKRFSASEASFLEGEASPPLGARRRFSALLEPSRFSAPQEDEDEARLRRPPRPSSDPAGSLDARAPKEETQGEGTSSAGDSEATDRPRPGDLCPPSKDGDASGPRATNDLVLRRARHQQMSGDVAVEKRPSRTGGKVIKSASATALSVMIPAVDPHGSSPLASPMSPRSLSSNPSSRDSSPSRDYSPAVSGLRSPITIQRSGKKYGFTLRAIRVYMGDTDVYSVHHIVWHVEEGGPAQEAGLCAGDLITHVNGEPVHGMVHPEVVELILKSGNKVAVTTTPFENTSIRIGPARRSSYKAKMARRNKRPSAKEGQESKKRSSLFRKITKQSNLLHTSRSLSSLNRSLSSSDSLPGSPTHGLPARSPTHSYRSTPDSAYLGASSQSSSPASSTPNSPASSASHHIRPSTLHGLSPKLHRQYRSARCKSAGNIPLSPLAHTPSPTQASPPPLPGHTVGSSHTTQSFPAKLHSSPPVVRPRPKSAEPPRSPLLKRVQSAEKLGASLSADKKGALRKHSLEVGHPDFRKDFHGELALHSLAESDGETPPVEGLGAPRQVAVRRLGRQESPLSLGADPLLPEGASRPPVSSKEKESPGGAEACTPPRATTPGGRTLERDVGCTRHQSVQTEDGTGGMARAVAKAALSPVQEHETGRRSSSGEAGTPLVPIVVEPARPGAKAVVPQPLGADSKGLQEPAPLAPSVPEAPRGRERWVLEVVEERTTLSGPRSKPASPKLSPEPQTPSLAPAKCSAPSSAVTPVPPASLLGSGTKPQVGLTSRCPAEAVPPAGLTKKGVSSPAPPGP
Chain of UniProt P49761 (whole entry, looked up): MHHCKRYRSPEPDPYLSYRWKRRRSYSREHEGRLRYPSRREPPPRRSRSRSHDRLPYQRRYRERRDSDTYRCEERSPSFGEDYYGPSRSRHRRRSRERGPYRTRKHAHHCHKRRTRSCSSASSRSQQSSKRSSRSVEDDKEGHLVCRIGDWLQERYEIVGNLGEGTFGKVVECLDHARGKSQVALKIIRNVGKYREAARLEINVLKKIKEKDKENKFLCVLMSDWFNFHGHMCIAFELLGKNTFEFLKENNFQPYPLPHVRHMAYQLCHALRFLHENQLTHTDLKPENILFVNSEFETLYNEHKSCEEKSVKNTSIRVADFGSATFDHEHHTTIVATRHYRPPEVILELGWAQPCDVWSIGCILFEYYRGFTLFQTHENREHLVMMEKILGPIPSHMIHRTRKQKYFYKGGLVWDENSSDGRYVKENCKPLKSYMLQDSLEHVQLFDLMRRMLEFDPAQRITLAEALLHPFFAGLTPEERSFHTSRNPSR
Chain of UniProt O94806 (whole entry, looked up): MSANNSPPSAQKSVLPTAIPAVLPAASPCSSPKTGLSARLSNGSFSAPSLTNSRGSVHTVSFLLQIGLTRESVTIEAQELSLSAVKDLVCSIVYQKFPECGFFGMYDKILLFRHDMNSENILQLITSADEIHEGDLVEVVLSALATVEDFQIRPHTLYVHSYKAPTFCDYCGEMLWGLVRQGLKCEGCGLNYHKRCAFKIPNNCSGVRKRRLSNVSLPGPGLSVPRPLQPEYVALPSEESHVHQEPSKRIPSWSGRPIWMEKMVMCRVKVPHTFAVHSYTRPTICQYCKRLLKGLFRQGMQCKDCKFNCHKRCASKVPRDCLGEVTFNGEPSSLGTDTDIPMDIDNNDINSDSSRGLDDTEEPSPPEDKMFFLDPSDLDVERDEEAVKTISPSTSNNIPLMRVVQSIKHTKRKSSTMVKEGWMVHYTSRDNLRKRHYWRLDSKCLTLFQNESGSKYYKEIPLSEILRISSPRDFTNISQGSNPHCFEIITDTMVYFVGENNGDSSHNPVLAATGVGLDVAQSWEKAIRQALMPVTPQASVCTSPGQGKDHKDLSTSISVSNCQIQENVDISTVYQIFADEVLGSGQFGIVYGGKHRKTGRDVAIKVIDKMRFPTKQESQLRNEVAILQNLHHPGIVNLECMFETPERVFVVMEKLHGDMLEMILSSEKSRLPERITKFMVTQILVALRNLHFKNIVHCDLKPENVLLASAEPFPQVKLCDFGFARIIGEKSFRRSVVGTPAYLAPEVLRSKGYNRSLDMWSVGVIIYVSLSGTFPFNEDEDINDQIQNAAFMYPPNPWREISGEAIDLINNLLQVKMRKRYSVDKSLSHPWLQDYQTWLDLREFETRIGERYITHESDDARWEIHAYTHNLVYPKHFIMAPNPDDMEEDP
Chain of UniProt P45985 (whole entry, looked up): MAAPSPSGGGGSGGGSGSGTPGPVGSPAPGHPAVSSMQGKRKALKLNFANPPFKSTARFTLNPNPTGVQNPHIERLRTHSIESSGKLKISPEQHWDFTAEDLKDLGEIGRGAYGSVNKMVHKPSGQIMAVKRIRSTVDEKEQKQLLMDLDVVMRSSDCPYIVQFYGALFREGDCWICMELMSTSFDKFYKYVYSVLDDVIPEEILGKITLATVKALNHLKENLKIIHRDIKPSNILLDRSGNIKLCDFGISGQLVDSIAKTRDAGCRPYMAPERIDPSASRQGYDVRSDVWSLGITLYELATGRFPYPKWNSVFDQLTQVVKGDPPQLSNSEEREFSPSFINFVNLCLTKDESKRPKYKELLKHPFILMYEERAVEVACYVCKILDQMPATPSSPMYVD

Sample 1
SMILES: COc1ccc(-c2c(Nc3ccccn3)[nH]c3c(C4=CCCCC4)c(-c4ccccc4)nn3c2=O)cc1
Sample: plasma
Route: oral
Endpoint: plasma concentration, mean
LC-MS/MS; human; 200 mg twice daily, 72 h, single dose: 456 ng/mL
cancer patients; 200 mg, 24 h post-dose, single dose: 1050 ng/mL
human patients; 200 mg once daily, 8 h, cycle 1: 6470 ng/mL
cancer patients; 400 mg, 0.5 h post-dose, single dose: 134 ng/mL
cancer patients; 400 mg, 3 h post-dose, single dose: 1100 ng/mL
cancer patients; 200 mg, 72 h post-dose, single dose: 462 ng/mL
human patients; 150 mg once daily, 0.5 h, cycle 1: 4890 ng/mL
LC-MS/MS; human; 50 mg once daily, 0.5 h, cycle 1: 1090 ng/mL
human patients; 100 mg once daily, 0.5 h, cycle 1: 3300 ng/mL
LC-MS/MS; human; 50 mg once daily, 2 h, cycle 1: 1320 ng/mL
LC-MS/MS; human; 50 mg once daily, 3 h, cycle 1: 1570 ng/mL
human patients; 150 mg once daily, 4 h, cycle 1: 5440 ng/mL
human patients; 100 mg once daily, 0 h, cycle 1: 3600 ng/mL
human patients; 200 mg once daily, 4 h, cycle 1: 6430 ng/mL
LC-MS/MS; human; 50 mg once daily, 4 h, cycle 1: 1540 ng/mL
LC-MS/MS; human; 200 mg twice daily, 24 h, single dose: 1100 ng/mL
cancer patients; 200 mg, 2 h post-dose, single dose: 1100 ng/mL
cancer patients; 150 mg, 6 h post-dose, single dose: 1310 ng/mL

Sample 2
Target: Tyrosine-protein kinase CSK (CSK, Homo sapiens, UniProt P41240)
Chain of UniProt P41240 (whole entry, looked up): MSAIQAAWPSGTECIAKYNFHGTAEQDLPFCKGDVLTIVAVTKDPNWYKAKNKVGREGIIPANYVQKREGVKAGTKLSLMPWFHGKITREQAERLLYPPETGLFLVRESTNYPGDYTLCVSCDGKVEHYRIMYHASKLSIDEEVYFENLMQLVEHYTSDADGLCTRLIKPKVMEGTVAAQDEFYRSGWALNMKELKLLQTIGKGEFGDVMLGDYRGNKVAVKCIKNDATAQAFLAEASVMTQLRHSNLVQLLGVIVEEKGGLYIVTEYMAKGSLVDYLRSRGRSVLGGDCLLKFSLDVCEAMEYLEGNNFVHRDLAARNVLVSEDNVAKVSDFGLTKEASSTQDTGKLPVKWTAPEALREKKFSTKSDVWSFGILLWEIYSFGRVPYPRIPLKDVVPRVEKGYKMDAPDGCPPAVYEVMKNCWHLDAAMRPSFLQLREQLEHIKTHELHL
Read-out: enzyme activity
Action: inhibitor
Concentration: 0.5 µM
Reference: control
Endpoint: remaining activity
Nc1nc(Nc2ccc(S(N)(=O)=O)cc2)nn1C(=O)c1c(F)cccc1F: 88.9%
CCCC(=O)Oc1ccc2[nH]c(C(=O)c3cc4ccccc4[nH]3)cc2c1: 83.5%
Oc1ccc(Nc2nc(-c3ccc(Cl)cc3)cs2)cc1: 101%
CC#CC(=O)Nc1cc2c(Nc3ccc(F)c(Cl)c3)ncnc2cn1: 100%
COc1ccc(S(=O)(=O)N(CCO)c2ccccc2CN(C)CC=Cc2ccc(Cl)cc2)cc1: 95.6%
CC(=O)c1ccc(N2CCOCC2)cc1O: 99.1%
O=C1NC(=O)C(c2c[nH]c3ccccc23)=C1c1c[nH]c2ccccc12: 103%
Cc1ccc(NC2=CC(=O)c3sc(C)nc3C2=O)cc1: 102%
O=C1Cc2c([nH]c3ccc([N+](=O)[O-])cc23)-c2ccccc2N1: 96.6%
NC(=O)c1ccc(N(C(N)=O)c2c(F)cccc2F)nc1-c1ccc(F)cc1F: 90%
Nc1ncnc2c1cnn2-c1ccccc1: 86.8%
Cc1cc(Nc2nc(-c3ccccc3)nc3ccccc23)n[nH]1: 98.4%
CCc1[nH]c(-c2ccc(OC)cc2)nc1-c1ccncc1: 101%
CC[n+]1c(/C=C/N(C)c2ccccc2)n(-c2ccccc2)c2ccc(-c3nc4ccccc4s3)cc21: 100%
CC(C)(C)n1nc(Cc2cccc3ccccc23)c2c(N)ncnc21: 46.1%
O=S(=O)(NCCNC/C=C/c1ccc(Br)cc1)c1cccc2cnccc12: 95.6%
Nc1nccc(-c2c(-c3ccc(F)cc3)ncn2C2CCNCC2)n1: 90.8%
CSc1nc(-c2ccnc(N[C@@H](C)c3ccccc3)c2)c(-c2ccc(F)cc2)[nH]1 (racemic): 82.4%
N#CC(=C(N)Sc1ccc(N)cc1)c1ccccc1C(F)(F)F: 90.9%
COc1cc(Nc2c(C#N)cnc3cc(OCCCN4CCN(C)CC4)c(OC)cc23)c(Cl)cc1Cl: 12.3%

Sample 3
Target: Calcium/calmodulin-dependent protein kinase type II subunit alpha (CAMK2A, Homo sapiens, UniProt Q9UQM7)
Chain of UniProt Q9UQM7 (whole entry, looked up): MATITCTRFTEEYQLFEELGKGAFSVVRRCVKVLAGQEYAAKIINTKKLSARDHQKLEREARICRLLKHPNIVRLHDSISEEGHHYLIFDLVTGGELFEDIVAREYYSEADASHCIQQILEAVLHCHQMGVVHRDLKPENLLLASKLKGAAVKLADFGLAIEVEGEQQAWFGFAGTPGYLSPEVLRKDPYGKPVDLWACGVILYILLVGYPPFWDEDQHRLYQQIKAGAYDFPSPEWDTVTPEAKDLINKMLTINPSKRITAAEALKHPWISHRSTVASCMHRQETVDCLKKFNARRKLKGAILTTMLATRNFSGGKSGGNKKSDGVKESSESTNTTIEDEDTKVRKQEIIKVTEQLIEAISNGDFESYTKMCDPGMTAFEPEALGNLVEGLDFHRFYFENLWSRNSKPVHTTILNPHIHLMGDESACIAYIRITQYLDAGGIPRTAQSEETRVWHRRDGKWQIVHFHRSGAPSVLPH
Read-out: enzyme activity
Action: inhibitor
Concentration: 10 µM
Endpoint: inhibition
COc1cc(O)cc(O)c1C(=O)C=Cc1ccccc1: -37%
COC(=O)C1=C(C#N)NC(C)=C(C(=O)OC(C)C)C1c1cccc([N+](=O)[O-])c1 (stereo not drawn): -5%
COc1cc(/C=C/C(=O)CC(=O)/C=C/c2ccc(O)cc2)ccc1O: 60%
O=C1Nc2ccccc2C1(c1ccc(O)cc1)c1ccc(O)cc1: -4%
C[C@@H]1O[C@@H](OCCC(=O)O)[C@H](O)C[C@H]1O: 34%
COc1cc(N)cn[n+]1-c1ccccc1: 9%
CCOC(=O)[C@H](CCc1ccccc1)N[C@@H](C)C(=O)N1Cc2ccccc2C[C@H]1C(=O)O: 13%
COc1cc(OC)c(CCC(=O)c2ccc(O)cc2)c(OC)c1: 41%
NC(N)=NCCCC(=O)O: -9%
CCOC(=O)CC(=O)C(C)(C)C: -35%
C=C(C)[C@H]1C=C[C@@](C)(O)CC1: 2%
CC1(C)CC(=O)CC(C)(C)N1: -18%
CC1=C(C/C=C(\C)CCC[C@H](C)CCC[C@H](C)CCCC(C)C)C(=O)c2ccccc2C1=O: 0%
CC(C)C[C@H](NC(=O)[C@H](Cc1ccccc1)NC(=O)c1cnccn1)B(O)O: -1%
O=C(/C=C/c1ccc(O)cc1)c1c(O)cc(O)c(O)c1OC1O[C@H](CO)[C@@H](O)[C@H](O)[C@H]1O (stereo partly drawn): -15%

Sample 4
Compound: O=C(N1CCS(=O)(=O)CC1)N1C[C@H](c2ccc(OC(F)(F)F)cc2)C[C@H](c2nc(C3CC3)no2)C1
Read-out: cell-free assay
Technique: competition with immobilised ligand
Concentration: 1 µM
Endpoint: remaining binding
NTRK1 (Homo sapiens, UniProt P04629): 87%
CDK17 (Homo sapiens, UniProt Q00537): 98%
CLK3 (Homo sapiens, UniProt P49761): 100%
PRKAA2 (Homo sapiens, UniProt P54646): 100%
FYN (Homo sapiens, UniProt P06241): 80%
MAP2K4 (Homo sapiens, UniProt P45985): 95%
MAST1 (Homo sapiens, UniProt Q9Y2H9): 100%
TIE1 (Homo sapiens, UniProt P35590): 100%
TRPM6 (Homo sapiens, UniProt Q9BX84): 100%
EPHA6 (Homo sapiens, UniProt Q9UF33): 100%
Receptor-type tyrosine-protein kinase FLT3, autoinhibited (FLT3, Homo sapiens, UniProt P36888): 81%
WNK1 (Homo sapiens, UniProt Q9H4A3): 100%
PRKD3 (Homo sapiens, UniProt O94806): 100%
CDK15 (Homo sapiens, UniProt Q96Q40): 100%
MAPK4 (Homo sapiens, UniProt P31152): 100%
SIK2 (Homo sapiens, UniProt Q9H0K1): 100%

Repeated from above (sample 2):
COc1cc(Nc2c(C#N)cnc3cc(OCCCN4CCN(C)CC4)c(OC)cc23)c(Cl)cc1Cl: 12.3%
O=S(=O)(NCCNC/C=C/c1ccc(Br)cc1)c1cccc2cnccc12: 95.6%
CC[n+]1c(/C=C/N(C)c2ccccc2)n(-c2ccccc2)c2ccc(-c3nc4ccccc4s3)cc21: 100%
Nc1nc(Nc2ccc(S(N)(=O)=O)cc2)nn1C(=O)c1c(F)cccc1F: 88.9%
COc1ccc(S(=O)(=O)N(CCO)c2ccccc2CN(C)CC=Cc2ccc(Cl)cc2)cc1: 95.6%
NC(=O)c1ccc(N(C(N)=O)c2c(F)cccc2F)nc1-c1ccc(F)cc1F: 90%
Oc1ccc(Nc2nc(-c3ccc(Cl)cc3)cs2)cc1: 101%
N#CC(=C(N)Sc1ccc(N)cc1)c1ccccc1C(F)(F)F: 90.9%
Nc1ncnc2c1cnn2-c1ccccc1: 86.8%
CCc1[nH]c(-c2ccc(OC)cc2)nc1-c1ccncc1: 101%
